Published values of several laboratories.
Each numbered part is a random draw from the data of one study; scales do not carry over between parts.

Study 1
Target: Prothrombin, mature alpha-thrombin (F2, Homo sapiens, UniProt P00734)
Technique: aptamer microarray, sandwich
Molecule type: DNA with 2'F-ANA
Sample: in vitro
Tested at: 200 nM
Notes: whole 15-mer aptamer, many near background
Added: Cy3 exosite-II aptamer, 400 nM
Direction: higher = stronger binding
Sequence: GGTTGGTGTGGTTGG
| Modification | mean fluorescence intensity |
| --- | --- |
| 2'F-ANA at 2 3 4 6 8 9 11 13 14 15 | 193 a.u. |
| 2'F-ANA at 2 3 4 6 7 9 13 | 319 a.u. |
| 2'F-ANA at 2 4 7 9 10 12 14 15 | 66.6 a.u. |
| 2'F-ANA at 1 4 8 9 13 14 | 72.6 a.u. |
| 2'F-ANA at 1 8 11 12 14 15 | 70.8 a.u. |
| 2'F-ANA at 1 3 4 5 6 14 15 | 59.7 a.u. |
| 2'F-ANA at 1 7 8 9 10 11 12 13 14 | 62.8 a.u. |
| 2'F-ANA at 2 3 8 10 | 392 a.u. |
| 2'F-ANA at 3 7 9 10 12 13 | 708 a.u. |

Study 2
Target: TAR DNA-binding protein 43, full length, His tag (TARDBP, Homo sapiens, UniProt Q13148, residues 1-414)
Technique: RNA Bind-n-Seq
Molecule type: RNA
Sample: in vitro
Tested at: 20 nM
Notes: 6-mer, flanks averaged, single round
Added: 150 mM LiCl
Relative to: input library
Direction: higher = stronger binding
| Sequence | 6-mer enrichment (R) |
| --- | --- |
| UCUGUG | 1.11 |
| CGGGGG | 1.32 |
| UAUCAU | 0.9 |
| UAAGUA | 0.967 |
| AGGAUU | 0.869 |
| CAAUUC | 0.879 |
| AAAUAC | 0.85 |
| AGUGAG | 1.24 |
| CGUUCC | 0.895 |

Study 3
Target: Histone acetyltransferase KAT6A, winged helix 1, GST fusion (KAT6A, Homo sapiens, UniProt Q92794, residues 1-85)
Technique: protein binding microarray
Molecule type: double-stranded DNA, one strand shown
Sample: in vitro
Tested at: not given
Notes: 8-mer, flanks averaged, mean of 2 arrays, mostly near background
Relative to: not given
Direction: higher = stronger binding
Target sequence (chain): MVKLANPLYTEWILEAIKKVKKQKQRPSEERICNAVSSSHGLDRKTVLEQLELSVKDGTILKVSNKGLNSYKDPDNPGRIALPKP
| Sequence | E-score |
| --- | --- |
| GGTACGGA | 0.29 |
| ATCTCCAA | -0.284 |
| TCTCTTAA | -0.178 |
| AACATTAC | 0.00647 |
| GGTTAAAA | 0.00566 |
| CTGAAGCA | -0.165 |

Mixed results
| Substance | target | test | test system | conditions | scale | measurement | value |
| --- | --- | --- | --- | --- | --- | --- | --- |
| PhoQ, residues 284 288 289 292 302 303 SSTLSG | PhoP, residues 12 14 15 18 19 YHFSH (Escherichia coli, UniProt P23836) | Sort-seq, item: YFP reporter | E. coli | PhoQ-PhoP variant library, added: 10 µM Mg2+ | relative to: high Mg2+ state, higher = stronger signaling | fold induction | 3.89 |
